Assay results from different studies.
Compare with care: the assays were run in different laboratories. Values joined by “and” are separate records of one study, mostly repeats; a detail may differ. ± gives the spread as reported.

SMILES = CCCCCCCCCCCCCCCC(=O)N[C@@H](CCC(=O)NCCCC[C@H](NC(=O)[C@H](CC(=O)O)NC(=O)[C@H](CO)NC(=O)[C@@H](NC(=O)[C@H](Cc1ccccc1)NC(=O)[C@@H](NC(=O)CNC(=O)[C@H](CCC(N)=O)NC(=O)[C@H](CO)NC(=O)[C@@H](N)Cc1c[nH]cn1)[C@@H](C)O)[C@@H](C)O)C(=O)N[C@@H](CO)C(=O)N[C@@H](CCC(=O)O)C(=O)N[C@@H](Cc1ccc(O)cc1)C(=O)N[C@@H](CC(C)C)C(=O)N[C@@H](CC(=O)O)C(=O)N[C@@H](CO)C(=O)N[C@@H](CCC(=O)O)C(=O)N[C@@H](CCCNC(=N)N)C(=O)N[C@@H](C)C(=O)N[C@@H](CCCNC(=N)N)C(=O)N[C@@H](CC(=O)O)C(=O)N[C@@H](Cc1ccccc1)C(=O)N[C@H](C(=O)N[C@@H](C)C(=O)N[C@@H](Cc1c[nH]c2ccccc12)C(=O)N[C@@H](CC(C)C)C(=O)N[C@@H](CCC(=O)O)C(=O)N[C@@H](C)C(=O)NCC(=O)NCC(=O)O)C(C)C)C(=O)O; test = item: Flatulence; test system = humans all renal groups; setting = subcutaneous, 100 µg single dose; measurement = treatment-related adverse events; result = 2.7%
SMILES = C[C@@H]1NC(=O)[C@H](CCCCNC(=O)CO/N=C/C(=O)NCCCC[C@@H]2NC(=O)[C@@H](Cc3ccccc3)NC(=O)[C@H](CC(=O)O)NC(=O)CNC(=O)[C@H](CCCNC(=N)N)NC2=O)NC(=O)CNC(=O)[C@@H]2CCCN2C(=O)[C@H](CCCCNC(=O)CO/N=C/C(=O)NCCCC[C@@H]2NC(=O)[C@@H](Cc3ccccc3)NC(=O)[C@H](CC(=O)O)NC(=O)CNC(=O)[C@H](CCCNC(=N)N)NC2=O)NC(=O)[C@H](CCCCNC(=O)CCNC(=O)CCNC(=O)CCNC(=O)[C@H](CCCCN)NC(=O)[C@H](Cc2ccccc2)NC(=O)CNC(=O)CN2CCCNCCNCCCNCC2)NC(=O)[C@H](CCCCNC(=O)CO/N=C/C(=O)NCCCC[C@@H]2NC(=O)[C@@H](Cc3ccccc3)NC(=O)[C@H](CC(=O)O)NC(=O)CNC(=O)[C@H](CCCNC(=N)N)NC2=O)NC(=O)CNC(=O)[C@@H]2CCCN2C(=O)[C@H](CCCCNC(=O)CO/N=C/C(=O)NCCCC[C@@H]2NC(=O)[C@@H](Cc3ccccc3)NC(=O)[C@H](CC(=O)O)NC(=O)CNC(=O)[C@H](CCCNC(=N)N)NC2=O)NC1=O [copper-64 labelled]; test system = normal mice, kidney; setting = intravenous, 0.74 MBq, 3 h post-injection; measurement = tissue uptake; result = 47.7 ± 2.48 %ID/g
SMILES = CCc1ccc(CC/C=C/c2ccc3c(c2)C(=O)CC3)cc1; test system = Sprague-Dawley rat, female; setting = oral, 450 mg/kg/day, 14 days; measurement = Urea; result = 5.47 mM
SMILES = N=C(N)NCCNC(=O)C1(Nc2ccccc2)CCN(Cc2ccccc2)CC1; test system = female Sprague-Dawley rats; setting = intravenous, 2.5 mg/kg; measurement = elimination rate constant; result = 0.000222 ± 2.78e-05 s⁻¹
SMILES = CN1C(=O)[C@@H](NC(=O)c2nnc(Cc3ccccc3)[nH]2)COc2cccnc21; test = phase I multiple ascending dose; test system = human, male and female; setting = oral, 100 mg, 14 days; measurement = participants with TEAE leading to death; result = 0%
SMILES = C=CCNc1c(O)cc2c(O)c1C[C@@H](C)C[C@H](OC)[C@H](O)[C@@H](C)/C=C(\C)[C@H](OC(N)=O)[C@@H](OC)/C=C\C=C(/C)C(=O)N2; test system = unresectable or metastatic STS, GIST, other; setting = intravenous, 90 mg/m^2; measurement = patients with headache TEAE; result = 0%
SMILES = COc1c(OCCCN2CCOCC2)ccc2c1N=C(NC(=O)c1cnc(N)nc1)N1CCN=C21; test system = human, solid tumour expansion cohort; setting = 0.8 mg/kg, day 8, pre-infusion; measurement = systolic blood pressure; result = 119 ± 11.3 mmHg
SMILES = O=C(Nc1ccccc1)C1CCN(C(=O)Oc2cccnc2)CC1; test = adverse event reporting; test system = healthy women; setting = oral, 60 mg, 7 days; measurement = subjects with affect lability; result = 7.1%
SMILES = C=CC(=O)N1CC[C@H](n2nc(C#Cc3cc(OC)cc(OC)c3)c3c(N)ncnc32)C1; test system = human patients; setting = oral, dose not given, QD regimen, adverse drug reaction, with: lanthanum carbonate hydrate; measurement = hyperphosphatemia incidence, grade ≥3; result = 8.3%
SMILES = CCCCCOc1ccc(-c2ccc(-c3ccc(C(=O)N[C@H]4C[C@@H](O)[C@@H](OCC[N+](C)(C)C)NC(=O)[C@@H]5[C@@H](O)[C@@H](C)CN5C(=O)[C@H]([C@@H](C)O)NC(=O)[C@H]([C@H](O)[C@@H](O)c5ccc(O)cc5)NC(=O)[C@@H]5C[C@@H](O)CN5C(=O)[C@H]([C@@H](C)O)NC4=O)cc3)cc2)cc1; test system = adult ICU patients, mITT, serum; setting = dose not given, day 30; measurement = albumin; result = 28.1 g/L
SMILES = O=C1Nc2cc3[nH]nc(-c4ccncc4)c3cc2CN1Cc1ccccc1; test = item: Cough; test system = patients with advanced solid tumours; setting = intravenous, dose not given, all schedules; measurement = patients with TEAE; result = 15%
SMILES = Cn1ncc(-c2nc(N[C@H]3CC[C@H](N)CC3)ncc2Cl)c1CC1CC1; test system = human patients, plasma; setting = oral, 42 mg, day 5; measurement = AUC; result = 4770 ng·h/mL
SMILES = C[C@@H]1OC(=O)NN=C1c1ccc(-c2ccc(F)cc2)c(C(F)(F)F)c1; test = phase I trial, item: AST increased all grades; test system = human patients; setting = 20 mg loading then 1 mg daily; measurement = patients with adverse event; result = 50%
SMILES = Brc1ccc(Oc2cc(Br)c(Br)cc2Br)c(Br)c1; test system = whole cow milk; setting = 20 nM nominal; measurement = dose fraction in milk fat; result = 81.4%
SMILES = Clc1ccc(-c2ccccc2)cc1; test system = Sprague-Dawley rat, female, serum; setting = inhalation, 35 µg/rat, 24 h; measurement = alkaline phosphatase; result = 130 ± 33 U/L
SMILES = Clc1cc2c(cc1Cl)Oc1c(ccc(Cl)c1Cl)O2; test = ultrafiltration; test system = cow milk whey; setting = 200 nM nominal in whole milk; measurement = dose fraction in permeate; result = 16%
SMILES = CC(C)C(=O)OC[C@H]1O[C@@H](n2ccc(NO)nc2=O)[C@H](O)[C@@H]1O; test system = rat amniotic fluid dialysate; setting = 5 ng/mL, low concentration, three cycles, with: NHC 25 ng/mL; measurement = freeze-thaw stability; result = 100 ± 2.57%
SMILES = [O-][S+]1CCc2nc(N3CCC(c4ncc(Cl)cn4)CC3)nc(NC3(CO)CCC3)c21 (stereo not shown); test = phase I trial, item: anal fistula; test system = idiopathic pulmonary fibrosis patients; setting = 18 mg twice daily; measurement = subjects with adverse events; result = 10%
SMILES = C=CC(=O)Nc1cc(Nc2nccc(Nc3cc(Cl)c(F)cc3C(C)(C)O)n2)c(OC)cc1N1CC[C@@H](N(C)C)C1; test system = human patients; setting = oral, 300 mg, treatment-emergent adverse events; measurement = patients with anaemia; result = 31.4%
SMILES = COc1ncnn2ccc(-c3cnc4nc(C)n(Cc5nnc([C@@H](C)F)o5)c4c3)c12; test system = human patients; setting = oral, dose not given; measurement = incidence of creatinine increased (all grades); result = 14.3%
SMILES = NC(=O)[C@H]1CCN(c2ncnc(N)c2F)C[C@@H]1N1CCC[C@@H](Nc2cc(Cl)cc(C(F)(F)F)c2)C1=O; test system = B-cell malignancy patients; setting = oral, 164 mg twice daily, dose; measurement = grade ≥3 leukocytosis; result = 0%
SMILES = COc1cc2c(Oc3ccc4[nH]c(C)cc4c3F)ccnc2cc1OCC1(N)CC1; test = item: grade 3 gingival bleeding; test system = paediatric high-risk refractory sarcoma; setting = whole group; measurement = incidence of adverse event; result = 0%
SMILES = CC(C)c1nc(N(C)S(C)(=O)=O)nc(-c2ccc(F)cc2)c1/C=C/[C@@H](O)C[C@@H](O)CC(=O)O; test system = healthy human subjects; setting = oral, dose not given, study CL-0537 safety set; measurement = incidence of infections and infestations; result = 0%
SMILES = CN1CC[C@@H](c2c(O)cc(O)c3c(=O)cc(-c4ccc(C(F)(F)F)cc4Cl)oc23)[C@@H]1CO; test = item: Epistaxis; test system = relapsed B-cell malignancies; setting = oral, 150 mg, grade 3-4, intermittent dosing; measurement = patients with adverse event; result = 0%
SMILES = CC(C)[C@@H]1NC(=O)CNC(=O)[C@H](CC(N)=O)NC(=O)[C@H](CCCNC(=N)N)NC(=O)[C@H](Cc2ccc(O)cc2)NC(=O)[C@H](C(C)C)NC(=O)[C@@H](NC(=O)[C@@H](NC(=O)[C@H](CC(N)=O)NC(=O)[C@H](Cc2c[nH]c3ccccc23)NC(=O)[C@H](C)NC(=O)[C@H](Cc2ccccc2)NC(=O)CN)C(C)C)CSSC[C@@H](C(=O)N[C@@H](Cc2cnc[nH]2)C(=O)N[C@@H](CCCNC(=N)N)C(=O)N[C@@H](CCCNC(=N)N)C(=O)N[C@@H](C)C(=O)N[C@@H](CC(N)=O)C(N)=O)NC(=O)[C@H](C(C)C)NC(=O)[C@H](CCCNC(=N)N)NC1=O; test system = ICR mouse, blood; setting = intramammary, 5 mg/kg, day 5, 3 d dosing; measurement = albumin; result = 35 ± 1.03 g/L
SMILES = COc1cc2nccc(Oc3ccc(NC(=O)c4cc5c(n(-c6ccccc6)c4=O)CCCC5=O)nc3)c2cc1OC; test system = patients with relapsed/refractory AML; setting = oral, 10 mg once daily; measurement = TEAEs leading to death; result = 0%
SMILES = Oc1ccc(CSCc2ccc(O)cc2)cc1; test system = ICR mice male; setting = oral, 3000 mg/kg, day 8, acute toxicity; how to read = baseline: day 1; measurement = body weight gain; result = 5.12 ± 0.89 g
SMILES = CC(C)C[C@H](NC(=O)[C@H](C)NC(=O)[C@@H](NC(=O)[C@H](CCCNC(=N)N)NC(=O)[C@H](CC(C)C)NC(=O)[C@H](Cc1c[nH]c2ccccc12)NC(=O)[C@@H]1CCCN1C(=O)[C@@H](N)CCCCN)C(C)C)C(=O)N[C@@H](CS)C(=O)N1CCC[C@H]1C(=O)NCC(=O)O; test system = sheep red blood cells; setting = 8 µM, 1 h, 37 °C; measurement = hemolysis; result = 0.1% and 1.01% and 0.78%
SMILES = CCN1CCN(Cc2ccc(Nc3ncc(F)c(-c4cc(F)c5nc6n(c5c4)[C@H](C)CCC6)n3)nc2)CC1; test system = advanced solid tumour patients; setting = dose not given, Phase Ia monotherapy; measurement = leukopenia incidence, grade ≥3; result = 4.2%
SMILES = CCCC1CCC(C2CCC(c3ccc(F)c(F)c3)CC2)CC1 (stereo not shown); test system = rat, fetus; setting = 5000 ng/mL in perfusate, high dose, mixture of 21 LCMs; measurement = median fetal accumulation; result = 1.24 ng/g
SMILES = C[C@]1(O)C[C@@](N)(c2ccc(-c3nc4n(c3-c3ccccc3)COc3ccncc3-4)cc2)C1; test system = human, advanced or metastatic solid tumours; setting = dose not given, all patients, any grade; measurement = patients with Fatigue TEAE; result = 41.2%
SMILES = C[C@]1(CO)Cc2ncn(-c3ccc(C#N)c(Cl)c3)c2C(=O)O1; test system = human; setting = concentration not given, European multiple ascending dose; measurement = drug-related AE incidence; result = 11.7%
SMILES = COc1ncccc1-c1cnn2ccc(N3CCN(C(=O)OC(C)C)CC3)nc12; test system = mouse, formalin test, plasma; setting = oral, 60 mg/kg, 60 min; measurement = drug concentration; result = 23 µM
SMILES = CC(=O)c1c(C)c2cnc(Nc3ccc(C4CCN(CCS(C)(=O)=O)CC4)cn3)nc2n(C2CCCC2)c1=O; test system = human, dose-escalation trial, plasma; setting = oral, 150 mg twice daily, day 21, multiple doses; measurement = Cmax; result = 391 ng/mL
SMILES = Cl.Cn1c(=O)n(CCCCN2CCC3(CC2)OCc2ccccc23)c2ccccc21; test system = male Sprague-Dawley rat, brain; setting = intravenous, 10 mg/kg; measurement = elimination rate constant; result = 3.61e-05 s⁻¹
SMILES = CO[C@H]1C[C@@H]2CC[C@@H](C)[C@@](O)(O2)C(=O)C(=O)N2CCCC[C@H]2C(=O)O[C@H]([C@H](C)C[C@@H]2CC[C@@H](OC(=O)NCCOCCOCCOCCOCCOCCOCCOCCOCCC(=O)N3CCc4cc(Cn5nc(-c6ccc7oc(N)nc7c6)c6c(N)ncnc65)ccc4C3)[C@H](OC)C2)C[C@@H](O)[C@H](C)/C=C(\C)[C@@H](O)[C@@H](OC)C(=O)[C@H](C)C[C@H](C)/C=C/C=C/C=C/1C; test system = patients with advanced solid tumours; setting = intravenous, 1.6 mg/3 mg weekly, grade ≥3; measurement = incidence of Nausea TEAE; result = 0%
SMILES = O=C(O)CCCOc1ccc(F)cc1-c1cc(-c2ccccc2C(F)(F)F)n(-c2ccccc2)n1; test = item: UN; test system = Crl:CD(SD) rats, male, blood; setting = iv, 25 µg/kg, 14 days; measurement = blood chemistry; result = 16.3 ± 2.8 mg/dL

A few entries again:
SMILES = C[C@@H]1OC(=O)NN=C1c1ccc(-c2ccc(F)cc2)c(C(F)(F)F)c1; test = phase I trial, item: AST increased all grades; test system = human patients; setting = 20 mg loading then 1 mg daily; measurement = patients with adverse event; result = 50%
SMILES = Brc1ccc(Oc2cc(Br)c(Br)cc2Br)c(Br)c1; test system = whole cow milk; setting = 20 nM nominal; measurement = dose fraction in milk fat; result = 81.4%
SMILES = Clc1ccc(-c2ccccc2)cc1; test system = Sprague-Dawley rat, female, serum; setting = inhalation, 35 µg/rat, 24 h; measurement = alkaline phosphatase; result = 130 ± 33 U/L
